Measurements of several laboratories.
Lines come from different studies, so protocols differ.

The Tmax of `CCC(CC)n1c(Cc2cccs2)nc2cc(C(=O)N[C@@H](CC(=O)O)c3ccccc3)ccc21` is reported as 19.8 min (male Sprague-Dawley rat, plasma; intraperitoneal, 10 mg/kg).
`CN1CCC[C@@H]1C(=O)N[C@@H](Cc1ccc(-c2ccccc2)cc1)B(O)O` gave a Tmax of 4.8 min (male Sprague-Dawley rat, plasma; intravenous, 1 mg/kg).
For `O=C(O)c1c(O)cc(O[C@@H]2O[C@H](CO)[C@@H](O)[C@H](O)[C@H]2O)cc1/C=C/c1ccccc1`, the Tmax was 12.5 min (male Sprague-Dawley rat, plasma; oral, 5 mg/kg).
`Cc1cc2c(cc1O)C=C1C=CC(=O)C(C)(C)[C@H]1CC2` has a Tmax of 4.8 min (male Sprague-Dawley rat, plasma; oral, 20 mg/kg).
`CCC(CC)n1c(Cc2ccco2)nc2cc(C(=O)N[C@@H](CC(=O)O)c3ccccc3)ccc21` has a Tmax of 4.8 min (male Sprague-Dawley rat, plasma; intravenous, 1 mg/kg).
The Tmax of `OC1(C(F)(F)F)CCN(c2nc(Nc3ccnc(C(F)(F)F)c3)nc(-c3cccc(C(F)(F)F)n3)n2)C1` (stereo not drawn) is reported as 340 min (Sprague-Dawley rat, plasma; oral, 10 mg/kg).
`Cc1cccc(C)c1CNc1cc(C(=O)N2CCC2)cn2c(C)c(C)nc12` gave a Tmax of 15 min (male Sprague-Dawley rat, plasma; oral, 10 mg/kg).
`C/C(N)=N/C(=N\S(=O)(=O)c1ccc(C(F)(F)F)cc1)N1C[C@H](c2ccccc2)C(c2ccc(Cl)cc2)=N1` gave a Tmax of 120 min (male Sprague-Dawley rat, plasma; oral, 3 mg/kg).
For `CC(=O)O[C@@H]1CC[C@@]2(C)[C@@H](CC[C@]3(C)[C@@H]2C(=O)C=C2[C@@H]4[C@@H](C)[C@H](C)CC[C@]4(C)CC[C@]23C)[C@@]1(C)C(=O)O`, the Tmax was 360 min (female Wistar rat, plasma; oral, 1 mg/kg).
The Tmax of `CNC(=O)C1CCCN(C(=O)C2CC3CCC2N3C(=O)[C@@H]2C[C@@H](O)CN2C(=O)NCc2cccc(Cl)c2F)C1` (mixture of isomers) is reported as 49.8 min (rat, plasma; oral, 8 mg/kg).
`OCC1OC(n2cnc3c(NCc4ccc(Br)s4)ncnc32)C(O)C1O` (stereo not drawn) has a Tmax of 42 to 78 min (male Sprague-Dawley rat, blood; oral, 10 mg/kg).
`COC1C(c2ccc(Cl)c(Cc3ccc(OC4CCOC4)cc3)c2)OC(CO)C(O)C1O` (stereo not drawn) has a Tmax of 25.2 min (Sprague-Dawley rat, plasma; oral, 5 mg/kg).
`CC(=Nc1ccc(N)cc1)N(C)C` has a Tmax of 4.98 min (male Sprague-Dawley rat, plasma; intravenous, 20 mg/kg).
`C=C(NC(=O)c1csc(-c2nc3c(cc2O)-c2nc(cs2)C(=O)NC(C(C)O)C(=O)NC(=C(C)OC)c2nc(cs2)C(=O)NC2c4nc(cs4)C(=O)NC(COC(=O)c4c5c6c(cccc6n4O)COC(=O)C(OC4CC(C)(O)C(N(C)C)C(C)O4)C2OC5)c2nc-3cs2)n1)C(N)=O` (stereo not drawn) gave a Tmax of 5.4 min (Sprague-Dawley rat, plasma; intravenous, 6 mg/kg, single dose, infusion).
`O=c1c(-c2ccc(Cl)c(CN3CCOCC3)c2)coc2cc(O)ccc12` gave a Tmax of 15 min (male Sprague-Dawley rat, plasma; oral, 10 mg/kg).

Excerpt of the above:
`Cc1cc2c(cc1O)C=C1C=CC(=O)C(C)(C)[C@H]1CC2` has a Tmax of 4.8 min (male Sprague-Dawley rat, plasma; oral, 20 mg/kg).
For `CC(=O)O[C@@H]1CC[C@@]2(C)[C@@H](CC[C@]3(C)[C@@H]2C(=O)C=C2[C@@H]4[C@@H](C)[C@H](C)CC[C@]4(C)CC[C@]23C)[C@@]1(C)C(=O)O`, the Tmax was 360 min (female Wistar rat, plasma; oral, 1 mg/kg).
